Results collected from several papers.
Lines come from different studies, so protocols differ.

| SMILES | tested on | assay | system | conditions | measurement | value |
| --- | --- | --- | --- | --- | --- | --- |
| Fc1ccc(CNc2ncnc3ccc(F)cc23)cc1 | human coronavirus OC43 | virus-induced cell killing | MRC-5 | screen | maximum inhibition | 14.7% |
| C[C@@H]1OC(=O)NN=C1c1ccc(-c2ccc(F)cc2)c(C(F)(F)F)c1 | – | – | patients, phase I trial | oral, dose not given, all arms, worst grade 1 | patients with non-cardiac chest pain | 20% |
| N[C@@H]1c2ccccc2OC12CCN(c1cnc3c(N4CCCc5ncccc54)n[nH]c3n1)CC2 | – | – | advanced solid tumour patients | oral, 60 mg once daily | patients with grade ≥3 TEAE | 40% |
| Nc1nc2cc(-c3ccc4ncc(C(=O)N5CCOCC5)n4c3)ccc2o1 | – | measured: Nausea | advanced solid tumour patients | dose not given | patients with adverse event | 4% |
| C=CCNc1c(O)cc2c(O)c1C[C@@H](C)C[C@H](OC)[C@H](O)[C@@H](C)/C=C(\C)[C@H](OC(N)=O)[C@@H](OC)/C=C\C=C(/C)C(=O)N2 | – | – | unresectable or metastatic STS, GIST, other | intravenous, 300 mg/m^2 | patients with vomiting TEAE | 33% |
| COc1c(OCCCN2CCOCC2)ccc2c1N=C(NC(=O)c1cnc(N)nc1)N1CCN=C21 | – | measured: Diarrhoea | patients with advanced malignancies | intravenous, dose not given, any grade, all cohorts, with: gemcitabine | patients with adverse event | 42% |
| O=C1Nc2cc3[nH]nc(-c4ccncc4)c3cc2CN1Cc1ccccc1 | – | CTCAE v4.03 | advanced solid tumour patients | intravenous, 7.2 mg/kg | patients with dyspepsia | 33% |
| CO[C@H]1C[C@@H]2CC[C@@H](C)[C@@](O)(O2)C(=O)C(=O)N2CCCC[C@H]2C(=O)O[C@H]([C@H](C)C[C@@H]2CC[C@@H](OC(=O)NCCOCCOCCOCCOCCOCCOCCOCCOCCC(=O)N3CCc4cc(Cn5nc(-c6ccc7oc(N)nc7c6)c6c(N)ncnc65)ccc4C3)[C@H](OC)C2)C[C@@H](O)[C@H](C)/C=C(\C)[C@@H](O)[C@@H](OC)C(=O)[C@H](C)C[C@H](C)/C=C/C=C/C=C/1C | – | measured: grade ≥3 treatment-related mucositis | patients with advanced solid tumours | intravenous, 8 to 12 mg, DM plus TM, weekly | patients with AE | 6% |
| CN1CC[C@@H](c2c(O)cc(O)c3c(=O)cc(-c4ccc(C(F)(F)F)cc4Cl)oc23)[C@@H]1CO | – | measured: Anorexia | B-cell malignancies or AML | oral, 50 mg, continuous dosing | patients with adverse event | 0% |
| Cc1cc(O)c2c(c1)C(=O)c1cccc(O)c1C2=O | human coronavirus OC43 | virus-induced cell killing | MRC-5 | screen | maximum inhibition | 6.07% |
| CCN(CCO)CCCC(C)Nc1ccnc2cc(Cl)ccc12 (stereo not shown) | – | measured: Vomiting grade 2 | newly diagnosed glioblastoma patients | oral, 800 mg/dose, with radiotherapy and temozolomide | patients with adverse event | 33% |
| CC(=O)c1c(C)c2cnc(Nc3ccc(C4CCN(CCS(C)(=O)=O)CC4)cn3)nc2n(C2CCCC2)c1=O | – | – | HR+/HER2- advanced breast cancer patients | oral, 300 mg | patients with any TRAE | 100% |
| Cc1cc(OCCOCCC(F)(F)P(=O)(O)O)ccc1CCc1cnc2c(N)nc3cc(CCC(=O)O)ccc3c2c1 | – | measured: pyrexia | adults with advanced solid tumours | dose not given, by treatment group, all grades | patients with non-serious AE | 28.6% |

For quick reference, copied from above:
| SMILES | tested on | assay | system | conditions | measurement | value |
| --- | --- | --- | --- | --- | --- | --- |
| COc1c(OCCCN2CCOCC2)ccc2c1N=C(NC(=O)c1cnc(N)nc1)N1CCN=C21 | – | measured: Diarrhoea | patients with advanced malignancies | intravenous, dose not given, any grade, all cohorts, with: gemcitabine | patients with adverse event | 42% |
